Experimental data pooled from the literature.
Organism: Klebsiella pneumoniae

Compound | test | test system | setting | MIC
CC[C@H](C)[C@H](N)C(=O)N[C@@H](CC(C)C)C(=O)NCC(=O)N[C@H](CCCNC(=N)N)C(=O)N[C@H](C(=O)N[C@H](C(=O)N[C@@H](CCCCN)C(=O)NCC(=O)N[C@H](C(=O)N[C@@H](CCCCN)C(=O)N[C@@H](CC(=O)O)C(=O)N[C@H](C(=O)N[C@@H](CC(C)C)C(N)=O)[C@@H](C)CC)[C@@H](C)CC)C(C)C)[C@@H](C)CC | broth microdilution | ATCC 27736, Mueller-Hinton broth | 16 h, 37 °C | 100 µM
CC[C@H](C)[C@H](N)C(=O)N[C@@H](CO)C(=O)N[C@@H](Cc1ccccc1)C(=O)N[C@@H](CC(C)C)C(=O)NCC(=O)N[C@@H](CO)C(=O)N[C@@H](CCCCN)C(=O)N[C@H](C(=O)N[C@H](C(=O)N[C@H](C(=O)N[C@@H](CC(C)C)C(=O)N[C@@H](CC(C)C)C(=O)N[C@@H](CCCCN)C(=O)N[C@@H](CCCNC(=N)N)C(=O)N[C@@H](CCCNC(=N)N)C(=O)N[C@@H](CCCCN)C(=O)N[C@@H](CCCNC(=N)N)C(=O)N[C@@H](CCCCN)C(=O)N[C@@H](CCCNC(=N)N)C(=O)N[C@@H](CCCCN)C(N)=O)C(C)C)C(C)C)C(C)C | broth microdilution | ATCC 13883 | highest value reported | 64 µM
CC(=O)N[C@@H](CCCCN)C(=O)N[C@@H](CC(C)C)C(=O)N[C@@H](CC(C)C)C(=O)N[C@@H](CCCCN)C(=O)N[C@@H](CC(C)C)C(=O)N[C@@H](CC(C)C)C(=O)N[C@@H](CCCCN)C(=O)N[C@@H](CCCCN)C(=O)N1CCC[C@H]1C(=O)N[C@@H](CC(C)C)C(=O)N[C@@H](CCCCN)C(=O)N[C@@H](CC(C)C)C(N)=O | broth microdilution | ATCC 700603 | 18 h, 37 °C, compound alone | > 80 µM
CN(C)CCCNc1nc(Cl)c2c(c1O)C(=O)C1=C(O)[C@]3(O)C(=O)C(C(N)=O)=C(O)[C@@H](N(C)C)[C@@H]3C[C@@H]1C2.Cl |  | tet(A)-carrying |  | > 32 µg/mL
CC[C@H](C)[C@H](NC(=O)[C@H](CCCCN)NC(=O)[C@@H](NC(=O)[C@@H](NC(=O)[C@H](CC(C)C)NC(=O)[C@H](CCCNC(=N)N)NC(=O)[C@@H](NC(=O)[C@H](CC(C)C)NC(=O)[C@H](CCCNC(=N)N)NC(=O)CNC(=O)[C@H](Cc1ccccc1)NC(=O)[C@@H](N)CCCNC(=N)N)[C@@H](C)CC)[C@@H](C)CC)C(C)C)C(=O)N[C@@H](C)C(=O)N[C@@H](CCCNC(=N)N)C(=O)N[C@@H](CCCNC(=N)N)C(=O)N[C@@H](C)C(=O)N[C@@H](Cc1c[nH]cn1)C(=O)N[C@@H](CCCNC(=N)N)C(=O)N[C@@H](C)C(=O)N[C@@H](CCCNC(=N)N)C(=O)N[C@@H](CO)C(=O)N[C@@H](C)C(=O)N[C@H](C(=O)N[C@@H](CCCCN)C(=O)N[C@@H](C)C(=O)N[C@@H](C)C(=O)N[C@@H](CO)C(=O)N[C@@H](CC(N)=O)C(=O)N[C@H](C(=O)N[C@@H](C)C(=O)N[C@@H](CCC(=O)O)C(=O)N[C@@H](CC(C)C)C(=O)N[C@@H](C)C(=O)N[C@@H](Cc1c[nH]cn1)C(=O)NCC(=O)N[C@@H](CCC(=O)O)C(=O)O)C(C)C)C(C)C | bacterial growth, broth microdilution | cation-adjusted Mueller Hinton broth | 18 h, 37 °C | 4 µM
CC[C@H](C)[C@H](NC(=O)[C@H](Cc1c[nH]c2ccccc12)NC(=O)[C@@H](NC(=O)[C@H](Cc1ccc(O)cc1)NC(=O)[C@@H]1CCCN1C(=O)[C@@H](NC(=O)[C@H](C)N)[C@@H](C)CC)[C@@H](C)CC)C(=O)N[C@@H](Cc1ccc(O)cc1)C(=O)N[C@@H](CCCNC(=N)N)C(=O)N[C@@H](CC(C)C)C(=O)N[C@@H](CC(C)C)C(=O)N[C@@H](CCCNC(=N)N)C(=O)N[C@@H](CCCCN)C(=O)NCC(N)=O | broth microdilution | ATCC 700603 | 18 h, 37 °C | > 15 µM
C[C@@H](N)[C@H](O)CCCCCCCC(=O)CCCCCCCCCCCCCC[C@@H](O[C@@H]1O[C@H](CO)[C@H](O)[C@H](O)[C@H]1O)[C@@H](C)N | resazurin |  |  | 11.4 µM
CC(C)(O/N=C(\C(=O)N[C@@H]1C(=O)N2C(C(=O)[O-])=C(C[n+]3ccccc3)CS[C@H]12)c1csc(N)n1)C(=O)O | broth microdilution | ATCC 43816 acrAB overexpressor |  | < 0.5 µg/mL
CN(C)[C@@H]1C(O)=C(C(N)=O)C(=O)[C@@]2(O)C(O)=C3C(=O)c4c(O)c(NC(=O)CNC(C)(C)C)nc(F)c4C[C@H]3C[C@@H]12.Cl.Cl |  | tet(A)-carrying |  | > 32 µg/mL
CN(C)c1cc(NC(=O)CNC(C)(C)C)c(O)c2c1C[C@H]1C[C@H]3[C@H](N(C)C)C(O)=C(C(N)=O)C(=O)[C@@]3(O)C(O)=C1C2=O | broth microdilution | KPC-127 producing |  | 2 µg/mL

Excerpt of the above:
Compound | test | test system | setting | MIC
CC(=O)N[C@@H](CCCCN)C(=O)N[C@@H](CC(C)C)C(=O)N[C@@H](CC(C)C)C(=O)N[C@@H](CCCCN)C(=O)N[C@@H](CC(C)C)C(=O)N[C@@H](CC(C)C)C(=O)N[C@@H](CCCCN)C(=O)N[C@@H](CCCCN)C(=O)N1CCC[C@H]1C(=O)N[C@@H](CC(C)C)C(=O)N[C@@H](CCCCN)C(=O)N[C@@H](CC(C)C)C(N)=O | broth microdilution | ATCC 700603 | 18 h, 37 °C, compound alone | > 80 µM
CN(C)CCCNc1nc(Cl)c2c(c1O)C(=O)C1=C(O)[C@]3(O)C(=O)C(C(N)=O)=C(O)[C@@H](N(C)C)[C@@H]3C[C@@H]1C2.Cl |  | tet(A)-carrying |  | > 32 µg/mL
